# Measurements gathered from unrelated publications.
# Lines come from different studies, so protocols differ.
# RPS6KA1 N-terminal kinase domain: Ribosomal protein S6 kinase alpha-1, N-terminal kinase domain (RPS6KA1, Homo sapiens, UniProt Q15418)
# RPS6KA1 C-terminal kinase domain: Ribosomal protein S6 kinase alpha-1, C-terminal kinase domain (RPS6KA1, Homo sapiens, UniProt Q15418)
Compound,target,assay,setting,scale,remaining binding
Cc1cnc2nc1Nc1cccc(c1)COC/C=C/COCc1cc(ccc1OCCN1CCOCC1)N2,RPS6KA1 N-terminal kinase domain,"binding, competition with immobilised ligand",0.1 µM,,77%
Nc1ncc2c(n1)-c1c([nH]c3ccc(C4=CCOCC4)cc13)CCC2,RPS6KA1 C-terminal kinase domain,"binding, competition with immobilised ligand",1 µM,,71%
CNC1C[S+]2CC[S+]3CC[S+](C1)[Ru-4]321([N]=C=S)[n]2c3ccc(OC)cc3c3c4c(c5cc(F)c[n+]1c5c32)C(=O)NC4=O (stereo not drawn),RPS6KA1 N-terminal kinase domain,KinomeScan,0.1 µM,baseline: untreated,80%
C=CC(=O)N1CCc2ccc(-n3c(=O)ccc4cnc5ccc(-c6cnn(C)c6)cc5c43)cc21,RPS6KA1 C-terminal kinase domain,KINOMEscan,1 µM,baseline: DMSO control,73%
COc1c(Cl)cccc1Nc1c(-c2ccncc2C#C[C@@]2(C)CCCN2C(=O)/C=C/CN(C)C)[nH]c2c1C(=O)NCC2,RPS6KA1 C-terminal kinase domain,"binding, competition with immobilised ligand",3 µM,,51%
C=CC(=O)N1CCCC(n2c(=O)c3ncccc3n(Cc3ccc(Oc4ccccc4)cc3)c2=O)C1 (stereo not drawn),RPS6KA1 C-terminal kinase domain,"binding, competition with immobilised ligand",1 µM,,100%
COc1cc(Nc2nccc(-c3cnn4nc(OC)ccc34)n2)cc(C(F)(F)F)c1,RPS6KA1 N-terminal kinase domain,"binding, competition with immobilised ligand",1 µM,,90%
CC(C)=CC1OC(C)(C)C2C=C3C(=O)C(Cl)=CC(O)C3C3C(O)C4OC4C(=O)C132 (stereo not drawn),RPS6KA1 C-terminal kinase domain,"cell-free assay, competition with immobilised ligand",10 µM,,77%
CCN1CCN(Cc2ccc(C(=O)Nc3ccc(C)c(NCc4cnc5[nH]ccc5c4OC)c3)cc2C(F)(F)F)CC1,RPS6KA1 N-terminal kinase domain,"binding, competition with immobilised ligand",1 µM,,95%
CNC(=O)C1CCN(c2cc(C)c(F)cc2NC(=O)c2ccc(-c3cc(O)ccc3C)c(C)c2)CC1,RPS6KA1 C-terminal kinase domain,"binding, competition with immobilised ligand",1 µM,,92%
Cc1ccc(-c2c(/C=C(\C#N)C(=O)NC(C)C)n(CCCO)c3ncnc(N)c23)cc1,RPS6KA1 N-terminal kinase domain,"binding, competition with immobilised ligand",1 µM,,82%
COc1cc(Nc2nc(C)cc(-c3cnn4nc(OC)ccc34)n2)cc(C(F)(F)F)c1,RPS6KA1 N-terminal kinase domain,"binding, competition with immobilised ligand",1 µM,,100%
